Experimental data gathered from unrelated publications.
Every numbered part comes from another study and shows a few of its results, in no order.
Chain of UniProt P10721 (whole entry, unmodified, looked up): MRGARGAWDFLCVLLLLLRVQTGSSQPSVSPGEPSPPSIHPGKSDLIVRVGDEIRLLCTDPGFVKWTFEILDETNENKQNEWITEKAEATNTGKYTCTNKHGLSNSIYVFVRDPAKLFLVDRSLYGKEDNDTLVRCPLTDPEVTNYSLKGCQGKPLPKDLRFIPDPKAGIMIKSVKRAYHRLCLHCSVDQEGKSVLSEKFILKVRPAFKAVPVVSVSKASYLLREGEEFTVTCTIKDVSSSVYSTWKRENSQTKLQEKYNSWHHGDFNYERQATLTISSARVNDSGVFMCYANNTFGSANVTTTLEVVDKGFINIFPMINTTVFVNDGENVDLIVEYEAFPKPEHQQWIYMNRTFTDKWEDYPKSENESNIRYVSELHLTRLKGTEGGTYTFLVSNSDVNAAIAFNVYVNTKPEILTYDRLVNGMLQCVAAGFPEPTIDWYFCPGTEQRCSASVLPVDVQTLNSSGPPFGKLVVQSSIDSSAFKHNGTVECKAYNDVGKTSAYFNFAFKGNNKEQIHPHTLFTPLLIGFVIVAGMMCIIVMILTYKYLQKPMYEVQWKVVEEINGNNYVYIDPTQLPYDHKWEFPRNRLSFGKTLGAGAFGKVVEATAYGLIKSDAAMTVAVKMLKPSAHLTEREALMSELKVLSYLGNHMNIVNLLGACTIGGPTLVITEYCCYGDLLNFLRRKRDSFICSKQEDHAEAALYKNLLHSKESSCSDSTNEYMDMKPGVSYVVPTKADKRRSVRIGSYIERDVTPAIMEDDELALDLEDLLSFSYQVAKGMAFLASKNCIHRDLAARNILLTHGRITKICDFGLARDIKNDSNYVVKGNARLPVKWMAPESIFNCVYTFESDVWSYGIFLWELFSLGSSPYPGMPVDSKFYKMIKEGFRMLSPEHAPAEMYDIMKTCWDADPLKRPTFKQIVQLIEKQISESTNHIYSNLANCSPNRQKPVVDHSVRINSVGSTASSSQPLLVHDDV
Chain of UniProt P49841 (whole entry, looked up): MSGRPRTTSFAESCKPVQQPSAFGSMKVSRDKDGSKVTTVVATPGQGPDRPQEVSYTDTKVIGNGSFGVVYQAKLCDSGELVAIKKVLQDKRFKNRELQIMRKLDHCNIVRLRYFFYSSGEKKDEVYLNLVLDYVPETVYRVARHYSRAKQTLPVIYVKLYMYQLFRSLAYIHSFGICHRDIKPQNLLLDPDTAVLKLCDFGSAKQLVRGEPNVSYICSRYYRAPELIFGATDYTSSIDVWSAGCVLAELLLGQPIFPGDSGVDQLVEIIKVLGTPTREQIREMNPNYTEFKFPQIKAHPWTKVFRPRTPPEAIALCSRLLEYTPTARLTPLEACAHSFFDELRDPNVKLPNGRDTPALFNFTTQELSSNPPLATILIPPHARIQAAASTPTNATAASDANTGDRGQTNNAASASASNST
Chain of UniProt P22607 (whole entry, looked up): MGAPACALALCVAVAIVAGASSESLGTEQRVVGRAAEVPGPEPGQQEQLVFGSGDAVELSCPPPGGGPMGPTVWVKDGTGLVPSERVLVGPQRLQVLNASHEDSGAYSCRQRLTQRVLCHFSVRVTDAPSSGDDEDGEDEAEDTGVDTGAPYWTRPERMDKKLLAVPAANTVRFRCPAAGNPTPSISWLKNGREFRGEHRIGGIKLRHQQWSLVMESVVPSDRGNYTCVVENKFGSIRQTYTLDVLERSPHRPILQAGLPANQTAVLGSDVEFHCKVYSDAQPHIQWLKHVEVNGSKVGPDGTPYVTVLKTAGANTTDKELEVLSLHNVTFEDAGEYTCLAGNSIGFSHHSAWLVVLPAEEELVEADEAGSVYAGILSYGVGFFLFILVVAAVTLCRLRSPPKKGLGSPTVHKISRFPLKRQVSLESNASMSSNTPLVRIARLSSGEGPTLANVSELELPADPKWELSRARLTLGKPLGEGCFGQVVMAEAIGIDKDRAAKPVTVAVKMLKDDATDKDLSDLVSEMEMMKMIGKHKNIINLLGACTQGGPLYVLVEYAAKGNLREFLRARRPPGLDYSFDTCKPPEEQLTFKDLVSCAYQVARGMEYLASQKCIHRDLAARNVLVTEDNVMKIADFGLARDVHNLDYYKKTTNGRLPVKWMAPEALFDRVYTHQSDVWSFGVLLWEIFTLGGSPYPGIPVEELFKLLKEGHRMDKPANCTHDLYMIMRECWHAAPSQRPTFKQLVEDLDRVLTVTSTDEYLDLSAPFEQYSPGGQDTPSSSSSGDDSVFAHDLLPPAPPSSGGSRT
Chain of UniProt P36507 (whole entry, looked up): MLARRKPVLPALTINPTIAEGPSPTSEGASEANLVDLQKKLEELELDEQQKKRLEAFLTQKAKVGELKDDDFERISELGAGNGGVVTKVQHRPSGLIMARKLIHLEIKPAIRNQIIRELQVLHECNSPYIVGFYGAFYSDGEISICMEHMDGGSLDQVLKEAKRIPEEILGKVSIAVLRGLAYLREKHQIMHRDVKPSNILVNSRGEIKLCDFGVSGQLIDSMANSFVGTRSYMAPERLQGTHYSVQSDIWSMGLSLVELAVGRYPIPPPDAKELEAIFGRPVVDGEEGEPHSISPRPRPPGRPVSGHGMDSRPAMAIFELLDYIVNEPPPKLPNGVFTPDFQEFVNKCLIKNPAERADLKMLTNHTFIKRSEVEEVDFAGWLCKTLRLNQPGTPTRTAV
Chain of UniProt Q9P2K8 (whole entry, unmodified, looked up): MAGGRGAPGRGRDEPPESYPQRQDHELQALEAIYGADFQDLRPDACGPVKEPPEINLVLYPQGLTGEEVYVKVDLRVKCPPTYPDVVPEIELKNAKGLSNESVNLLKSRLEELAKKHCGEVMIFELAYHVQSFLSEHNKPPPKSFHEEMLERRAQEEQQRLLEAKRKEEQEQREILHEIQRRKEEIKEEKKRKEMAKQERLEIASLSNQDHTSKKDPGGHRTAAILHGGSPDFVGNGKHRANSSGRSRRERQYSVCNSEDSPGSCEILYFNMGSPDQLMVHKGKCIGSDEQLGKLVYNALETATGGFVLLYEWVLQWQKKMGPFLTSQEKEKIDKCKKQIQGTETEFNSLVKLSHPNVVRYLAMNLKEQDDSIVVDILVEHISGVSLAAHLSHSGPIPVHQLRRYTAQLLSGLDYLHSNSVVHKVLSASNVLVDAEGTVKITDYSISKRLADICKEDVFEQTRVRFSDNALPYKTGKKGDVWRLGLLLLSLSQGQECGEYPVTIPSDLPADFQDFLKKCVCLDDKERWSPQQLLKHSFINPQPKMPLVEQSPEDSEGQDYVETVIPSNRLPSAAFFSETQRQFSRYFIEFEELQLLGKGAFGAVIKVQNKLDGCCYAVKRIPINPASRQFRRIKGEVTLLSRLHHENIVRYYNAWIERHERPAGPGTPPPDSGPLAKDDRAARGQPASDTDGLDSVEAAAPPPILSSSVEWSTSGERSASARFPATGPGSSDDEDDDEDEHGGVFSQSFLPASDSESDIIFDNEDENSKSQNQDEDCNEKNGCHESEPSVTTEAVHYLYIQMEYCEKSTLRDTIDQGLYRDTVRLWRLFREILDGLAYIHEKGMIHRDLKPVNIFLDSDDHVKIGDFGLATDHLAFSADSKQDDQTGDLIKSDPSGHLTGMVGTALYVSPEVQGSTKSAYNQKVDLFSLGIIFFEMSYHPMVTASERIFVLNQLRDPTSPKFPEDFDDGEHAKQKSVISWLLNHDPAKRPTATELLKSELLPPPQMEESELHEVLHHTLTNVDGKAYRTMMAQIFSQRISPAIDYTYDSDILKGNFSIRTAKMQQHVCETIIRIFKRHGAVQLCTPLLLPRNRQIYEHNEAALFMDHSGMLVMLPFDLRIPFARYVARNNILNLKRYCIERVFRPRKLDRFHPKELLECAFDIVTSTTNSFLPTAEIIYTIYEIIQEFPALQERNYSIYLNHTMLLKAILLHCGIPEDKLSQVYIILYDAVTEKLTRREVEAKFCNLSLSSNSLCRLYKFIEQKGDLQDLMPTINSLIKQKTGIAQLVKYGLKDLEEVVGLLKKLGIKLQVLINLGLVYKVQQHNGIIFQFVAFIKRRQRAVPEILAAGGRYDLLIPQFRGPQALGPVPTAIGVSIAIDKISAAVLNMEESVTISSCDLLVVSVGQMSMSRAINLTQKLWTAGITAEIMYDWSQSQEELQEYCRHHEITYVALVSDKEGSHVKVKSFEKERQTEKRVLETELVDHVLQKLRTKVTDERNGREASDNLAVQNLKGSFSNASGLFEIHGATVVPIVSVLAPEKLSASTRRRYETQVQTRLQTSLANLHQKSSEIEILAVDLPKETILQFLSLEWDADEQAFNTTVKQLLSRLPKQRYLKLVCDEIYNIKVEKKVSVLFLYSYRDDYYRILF
Chain of UniProt Q9NY57 (whole entry, looked up): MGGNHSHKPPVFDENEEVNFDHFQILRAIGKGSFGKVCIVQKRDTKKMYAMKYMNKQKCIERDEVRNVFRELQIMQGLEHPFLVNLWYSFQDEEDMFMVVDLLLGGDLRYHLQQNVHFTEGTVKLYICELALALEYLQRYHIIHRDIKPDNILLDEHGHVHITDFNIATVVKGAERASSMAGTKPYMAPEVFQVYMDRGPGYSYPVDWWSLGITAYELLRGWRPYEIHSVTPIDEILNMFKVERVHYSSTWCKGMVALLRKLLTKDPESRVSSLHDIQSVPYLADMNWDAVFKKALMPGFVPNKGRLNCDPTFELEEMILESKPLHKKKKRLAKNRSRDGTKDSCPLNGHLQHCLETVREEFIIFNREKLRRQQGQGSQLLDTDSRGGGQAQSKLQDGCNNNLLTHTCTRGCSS
Chain of UniProt P49137 (whole entry, looked up): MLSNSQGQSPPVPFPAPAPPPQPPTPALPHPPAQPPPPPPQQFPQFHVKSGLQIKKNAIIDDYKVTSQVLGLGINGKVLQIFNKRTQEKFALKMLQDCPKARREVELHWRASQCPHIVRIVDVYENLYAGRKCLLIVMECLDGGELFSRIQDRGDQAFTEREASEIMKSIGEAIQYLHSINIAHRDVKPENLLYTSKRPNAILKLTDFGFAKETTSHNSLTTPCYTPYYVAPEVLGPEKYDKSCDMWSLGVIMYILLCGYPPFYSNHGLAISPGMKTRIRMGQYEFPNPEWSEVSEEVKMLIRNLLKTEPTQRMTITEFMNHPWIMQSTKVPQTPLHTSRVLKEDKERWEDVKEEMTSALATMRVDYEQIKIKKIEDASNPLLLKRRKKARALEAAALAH

Set 1 — sample: hydrocarbon/water; pH: 7.4
| SMILES | logD |
| --- | --- |
| CCC[C@@H]1C(=O)N(C)[C@@H](C)C(=O)N[C@@H](CC(C)C)C(=O)N2CCC[C@@H]2C(=O)N(C)[C@@H](C)C(=O)N[C@@H](CC(C)C)C(=O)N1C | 1.18 |
| CC(C)C[C@@H]1NC(=O)[C@H](C)N(C)C(=O)[C@H]2CCCN2C(=O)[C@H](CC(C)C)NC(=O)[C@H](C)N(C)C(=O)[C@@H](CC(C)C)N(C)C1=O | 1.58 |
| CC(C)C[C@@H]1NC(=O)[C@H](C)N(C)C(=O)[C@H](CC2CCCCC2)NC(=O)CN(CC(C)C)C(=O)[C@H]2CCCN2C(=O)[C@H](CC2CCCCC2)NC(=O)[C@H](C)N(C)C(=O)[C@H](CC(C)C)NC(=O)Cn2cc(nn2)CN(C)C1=O | 2.7 |
| CCN1CC(=O)N[C@@H](CC(C)C)C(=O)N(C)[C@@H](C)C(=O)N[C@@H](CC(C)C)C(=O)N(C)Cc2cn(nn2)CC(=O)N[C@@H](CC(C)C)C(=O)N(C)[C@@H](C)C(=O)N[C@@H](CC(C)C)C(=O)N2CCC[C@@H]2C1=O | -0.305 |
| CCC[C@H]1C(=O)N[C@@H](CC(C)C)C(=O)N(C)[C@@H](C)C(=O)N[C@@H](CC(C)C)C(=O)N(C)Cc2cn(nn2)CC(=O)N[C@@H](CC(C)C)C(=O)N(C)[C@@H](C)C(=O)N[C@@H](CC(C)C)C(=O)N2CCC[C@@H]2C(=O)N1C | 0.819 |
| CC(C)C[C@@H]1NC(=O)[C@H](C)N(C)C(=O)[C@H](CC2CCCCC2)NC(=O)CN(CC(C)C)C(=O)[C@H]2CCCN2C(=O)[C@H](CC2CCCCC2)NC(=O)[C@H](C)N(C)C(=O)[C@H](C2CCCCC2)NC(=O)Cn2cc(nn2)CN(C)C1=O | 3.16 |
| CC(C)CC1NC(=O)CN(CC2CCOCC2)C(=O)C2CCCN2C(=O)C(CC(C)C)NC(=O)C(C)N(C)C(=O)C(CC(C)C)NC(=O)CN(Cc2ccc3c(c2)OCO3)C(=O)C2CCCN2C(=O)C(Cc2ccccc2)NC(=O)C(C)N(C)C1=O (centres unmarked) | 2.81 |

Set 2 — organism: Sarcocystis neurona; read-out: parasite growth; tested at: 10 µM; time: 96 h; setting: secondary screen
| SMILES | inhibition [%] |
| --- | --- |
| Fc1ccc([C@@H]2CCNC[C@H]2COc2ccc3c(c2)OCO3)cc1 | -14.2 |
| CN(C)[C@@H]1C(O)=C(C(N)=O)C(=O)[C@@]2(O)C(O)=C3C(=O)c4c(O)cccc4[C@@](C)(O)[C@H]3C[C@@H]12 | -30.7 |
| O=S(=O)(O)CCS | -9.4 |
| CN1CC(=O)N2[C@H](c3ccc4c(c3)OCO4)c3[nH]c4ccccc4c3C[C@@H]2C1=O | -50.2 |
| CCCNC(=O)NS(=O)(=O)c1ccc(Cl)cc1 | -25.2 |
| CN1CCN(C2=Nc3cc(F)ccc3Cc3ccccc32)CC1 | -22.2 |
| CN(C)CCCN1c2ccccc2CCc2ccc(Cl)cc21 | -37.9 |
| CS(=O)(=O)OCCCCOS(C)(=O)=O | -4.7 |
| CO/N=C(\C(=O)N[C@@H]1C(=O)N2C(C(=O)O)=C(COC(C)=O)CS[C@H]12)c1csc(N)n1 | -12 |
| CC(=O)OCC(=O)NCCCOc1cccc(CN2CCCCC2)c1 | -37.4 |
| C[C@H]1COc2c(C3(N)CC3)c(F)cc3c(=O)c(C(=O)O)cn1c23 | -22.5 |

Set 3 — read-out: cell-free assay; method: competition with immobilised ligand; tested at: 1 µM
Compound: O=C(Nc1ccc(Oc2ccc(F)cc2)cc1)N1CCc2ncccc2[C@H]1c1ccc(F)cc1
| target | remaining binding |
| --- | --- |
| MYLK3 (Homo sapiens, UniProt Q32MK0) | 80% |
| GRK1 (Homo sapiens, UniProt Q15835) | 91% |
| eIF-2-alpha kinase GCN2, C-terminal kinase domain (EIF2AK4, Homo sapiens, UniProt Q9P2K8, S808G) | 100% |
| STK32B (Homo sapiens, UniProt Q9NY57) | 72% |
| ULK1 (Homo sapiens, UniProt O75385) | 89% |
| PIP4K2C (Homo sapiens, UniProt Q8TBX8) | 94% |
| KIT (Homo sapiens, UniProt P10721, V559D) | 100% |
| CDKL3 (Homo sapiens, UniProt Q8IVW4) | 82% |
| MAP3K12 (Homo sapiens, UniProt Q12852) | 100% |
| MARK1 (Homo sapiens, UniProt Q9P0L2) | 81% |

Set 4 — Compound: Cc1nc2cc3nc(-c4cccs4)cnc3cc2n1C; read-out: enzyme activity; mode: inhibitor; tested at: 0.5 µM; reference: control
| target | remaining activity |
| --- | --- |
| NEK1 (Homo sapiens, UniProt Q96PY6) | 94% |
| GRK7 (Homo sapiens, UniProt Q8WTQ7) | 96.6% |
| EPHA3 (Homo sapiens, UniProt P29320) | 102% |
| ULK2 (Homo sapiens, UniProt Q8IYT8) | 105% |
| FGFR3 (Homo sapiens, UniProt P22607) | 67.1% |
| CSNK1G3 (Homo sapiens, UniProt Q9Y6M4) | 96.1% |
| CSNK1G2 (Homo sapiens, UniProt P78368) | 103% |
| MAP2K2 (Homo sapiens, UniProt P36507) | 77.5% |
| GSK3B (Homo sapiens, UniProt P49841) | 109% |
| MAPKAPK2 (Homo sapiens, UniProt P49137) | 95.4% |
| JAK3 (Homo sapiens, UniProt P52333) | 107% |
| TEK (Homo sapiens, UniProt Q02763) | 96.6% |
| ACVR1B (Homo sapiens, UniProt P36896) | 104% |

For quick reference, copied from above (set 4):
| target | remaining activity |
| --- | --- |
| TEK (Homo sapiens, UniProt Q02763) | 96.6% |
| FGFR3 (Homo sapiens, UniProt P22607) | 67.1% |
